Published values of several laboratories.
Protocols differ between the studies behind these lines. ± marks the error that the study gave.

N=C(N)NCCC[C@@H]1NC(=O)[C@H](CCCCNC(=O)CCOCCOCCOCCOCCNC(=O)CN2CCN(CC(=O)O)CCN(CC(=O)O)CCN(CC(=O)O)CC2)NC(=O)[C@@H](Cc2ccccc2)NC(=O)[C@H](CC(=O)O)NC(=O)CNC1=O [indium-111 labelled] — result for “tumour to tissue ratio”: 6.89 ± 1.55 (athymic nude mice, female, U-87 MG glioma xenograft, tumour and muscle; intravenous, 1 h; relative to: tumour over muscle).
For CSCC[C@H](NC(=O)[C@H](CC(C)C)NC(=O)CNC(=O)[C@H](Cc1ccccc1)NC(=O)[C@H](Cc1ccccc1)NC(=O)[C@H](CCC(N)=O)NC(=O)[C@H](CCC(N)=O)NC(=O)[C@@H]1CCCN1C(=O)[C@H](CCCCNC(=O)CCC1=[N+]2C(=Cc3c(C)cc(C)n3[B-]2(F)F)C=C1)NC(=O)[C@@H]1CCCN1C(=O)[C@@H](N)CCCNC(=N)N)C(N)=O, the excitation maximum was 505 nm (PBS; 10 nM, pH 7.4).
For CC(C)C[C@H](NC(=O)C[C@H](O)[C@H](CC(C)C)NC(=O)[C@H](Cc1c[nH]cn1)NC(=O)CNC(=O)[C@@H](NC(=O)[C@H](C)NC(=O)[C@H](Cc1c[nH]c2ccccc12)NC(=O)[C@H](CCC(N)=O)NC(=O)[C@@H](Cc1ccccc1)NC(=O)c1ccc(NC(=O)CNC(=O)CCC(C(=O)O)N2CCN(CC(=O)O)CCN(CC(=O)O)CC2)cc1)C(C)C)C(N)=O (stereo partly drawn) [fluorine-18 labelled], the tumour uptake was 1.6 ± 0.34 %ID/g (PET imaging; mouse, PC-3 xenograft; intravenous, 1 h, blocking, with: AMBA 10 mg/kg).
For N=C(N)NCCC[C@@H]1NC(=O)[C@H](CCCCNC(=O)CNC(=O)CNC(=O)CNC(=O)CC[C@H](NC(=O)c2ccc(NN=Cc3ccccc3S(=O)(=O)O)nc2)C(=O)NCC(=O)NCC(=O)NCC(=O)NCCCC[C@@H]2NC(=O)[C@@H](Cc3ccccc3)NC(=O)[C@H](CC(=O)O)NC(=O)CNC(=O)[C@H](CCCNC(=N)N)NC2=O)NC(=O)[C@@H](Cc2ccccc2)NC(=O)[C@H](CC(=O)O)NC(=O)CNC1=O [technetium-99m labelled], “tumour to tissue ratio” read 9.19 ± 1.79 (athymic nu/nu mouse, female, U-87 MG glioma xenograft; intravenous, 30 min; relative to: tumour over blood).
CCCC[C@H](NC(=O)CCCCCCCNC(=O)c1ccc(NN)nc1)C(=O)N[C@H]1CC(=O)NCCCC[C@@H](C(N)=O)NC(=O)[C@H](Cc2c[nH]c3ccccc23)NC(=O)[C@H](CCCNC(=N)N)NC(=O)[C@@H](Cc2ccccc2)NC(=O)[C@H](Cc2c[nH]cn2)NC1=O [technetium-99m labelled] gave an uptake of 2.98 ± 1.77 %ID/g (C57 mouse, B16/F1 melanoma, blood; intravenous, 0.5 h).
N=C(N)NCCC[C@@H]1NC(=O)[C@H](CCCCNC(=O)CNC(=O)CNC(=O)CNC(=O)CC[C@H](NC(=O)CCOCCOCCOCCOCCNC(=O)CC[C@H](NC(=O)CN2CCN(CC(=O)O)CCN(CC(=O)O)CCN(CC(=O)O)CC2)C(=O)NCCOCCOCCOCCOCCC(=O)N[C@@H](CCC(=O)NCC(=O)NCC(=O)NCC(=O)NCCCC[C@@H]2NC(=O)[C@@H](Cc3ccccc3)NC(=O)[C@H](CC(=O)O)NC(=O)CNC(=O)[C@H](CCCNC(=N)N)NC2=O)C(=O)NCC(=O)NCC(=O)NCC(=O)NCCCC[C@@H]2NC(=O)[C@@H](Cc3ccccc3)NC(=O)[C@H](CC(=O)O)NC(=O)CNC(=O)[C@H](CCCNC(=N)N)NC2=O)C(=O)NCC(=O)NCC(=O)NCC(=O)NCCCC[C@@H]2NC(=O)[C@@H](Cc3ccccc3)NC(=O)[C@H](CC(=O)O)NC(=O)CNC(=O)[C@H](CCCNC(=N)N)NC2=O)NC(=O)[C@@H](Cc2ccccc2)NC(=O)[C@H](CC(=O)O)NC(=O)CNC1=O [indium-111 labelled]: “tumour to tissue ratio” 4.38 ± 1.28 (athymic nude mice, female, U-87 MG glioma xenograft, tumour and lungs; intravenous, 1 h; relative to: tumour over lungs).
N=C(N)NCCC[C@@H]1NC(=O)[C@H](CCCCNC(=O)c2ccc(CNC34CNCCNCC(NCc5ccc(C(=O)NCCCC[C@@H]6NC(=O)[C@@H](Cc7ccc(O)cc7)NC(=O)[C@H](CC(=O)O)NC(=O)CNC(=O)[C@H](CCCNC(=N)N)NC6=O)cc5)(CNCCNC3)CNCCNC4)cc2)NC(=O)[C@@H](Cc2ccc(O)cc2)NC(=O)[C@H](CC(=O)O)NC(=O)CNC1=O [copper-64 labelled] — result for free 64Cu: “not detected” (radio-HPLC; PBS; up to 20 h).
The tissue uptake of CCCC[C@H](NC(=O)CNC(=O)CNC(=O)c1ccc(NN)nc1)C(=O)N[C@H]1CC(=O)NCCCC[C@@H](C(N)=O)NC(=O)[C@H](Cc2c[nH]c3ccccc23)NC(=O)[C@H](CCCNC(=N)N)NC(=O)[C@@H](Cc2ccccc2)NC(=O)[C@H](Cc2c[nH]cn2)NC1=O [technetium-99m labelled] is reported as 0.04 ± 0.02 %ID/g (C57 mouse, B16/F1 melanoma-bearing, muscle; intravenous, 4 h).
For N=C(N)NCCC[C@@H]1NC(=O)[C@H](CCCCNC(=O)CC[C@H](NC(=O)CCOCCOCCOCCOCCNC(=O)CN2CCN(CC(=O)O)CCN(CC(=O)O)CCN(CC(=O)O)CC2)C(=O)NCCCC[C@@H]2NC(=O)[C@@H](Cc3ccccc3)NC(=O)[C@H](CC(=O)O)NC(=O)CNC(=O)[C@H](CCCNC(=N)N)NC2=O)NC(=O)[C@@H](Cc2ccccc2)NC(=O)[C@H](CC(=O)O)NC(=O)CNC1=O [indium-111 labelled], “tumour to tissue ratio” read 1.92 ± 0.15 (athymic nude mice, female, U-87 MG glioma xenograft, tumour and liver; intravenous, 1 h; relative to: tumour over liver).
The solubility increase of CC(=O)O[C@H]1C(=O)[C@@]2(C)[C@H]([C@H](OC(=O)c3ccccc3)[C@]3(O)C[C@H](OC(=O)[C@H](OC(=O)Cc4ccccc4SSCCC(=O)NCCOCCOCCNC(=O)CCC(=O)NCC(=O)NCC(=O)N[C@@H](CCCCN)C(=O)N[C@H](C(=O)N[C@@H](CCCCN)C(=O)N[C@H](C(=O)N[C@@H](CCCCN)C(=O)N[C@H](C(=O)N[C@@H](CCCCN)C(=O)N[C@H](C(=O)N4CCC[C@@H]4C(=O)N4CCC[C@H]4C(=O)N[C@H](C(=O)N[C@@H](CCCCN)C(=O)N[C@H](C(=O)N[C@@H](CCCCN)C(=O)N[C@H](C(=O)N[C@@H](CCCCN)C(=O)N[C@H](C(=O)N[C@@H](CCCCN)C(N)=O)C(C)C)C(C)C)C(C)C)[C@@H](C)O)C(C)C)C(C)C)C(C)C)C(C)C)[C@@H](NC(=O)c4ccccc4)c4ccccc4)C(C)=C1C3(C)C)[C@]1(OC(C)=O)CO[C@@H]1C[C@@H]2O is reported as roughly 1000 fold (HEPES buffer; 24 h, pH 7.4, 37 °C; relative to: compound over free paclitaxel).
N=C(N)NCCC[C@@H]1NC(=O)[C@H](CCCCNC(=O)CC[C@H](NC(=O)CCOCCOCCOCCOCCNC(=O)CC[C@H](NC(=O)CN2CCN(CC(=O)O)CCN(CC(=O)O)CCN(CC(=O)O)CC2)C(=O)NCCOCCOCCOCCOCCC(=O)N[C@@H](CCC(=O)NCCCC[C@@H]2NC(=O)[C@@H](Cc3ccccc3)NC(=O)[C@H](CC(=O)O)NC(=O)CNC(=O)[C@H](CCCNC(=N)N)NC2=O)C(=O)NCCCC[C@@H]2NC(=O)[C@@H](Cc3ccccc3)NC(=O)[C@H](CC(=O)O)NC(=O)CNC(=O)[C@H](CCCNC(=N)N)NC2=O)C(=O)NCCCC[C@@H]2NC(=O)[C@@H](Cc3ccccc3)NC(=O)[C@H](CC(=O)O)NC(=O)CNC(=O)[C@H](CCCNC(=N)N)NC2=O)NC(=O)[C@@H](Cc2ccccc2)NC(=O)[C@H](CC(=O)O)NC(=O)CNC1=O [indium-111 labelled] — result for “tumour to tissue ratio”: 8.94 ± 5.37 (athymic nude mice, female, U-87 MG glioma xenograft, tumour and lungs; intravenous, 72 h; relative to: tumour over lungs).
CSCC[C@H](NC(=O)[C@H](CC(C)C)NC(=O)[C@H](Cc1c[nH]cn1)NC(=O)CNC(=O)[C@@H](NC(=O)[C@H](C)NC(=O)[C@H](Cc1c[nH]c2ccccc12)NC(=O)[C@H](CCC(N)=O)NC(=O)CCCCCNC(=O)CNC(=O)CNC(=O)CNC(=O)CSC(C)=O)C(C)C)C(N)=O [technetium-99m labelled] has a tissue uptake of 0.31 ± 0.06 %ID/g (nude mouse, PC-3 xenograft, stomach; 90 min, with: excess unlabelled conjugate).

Repeated from above:
For N=C(N)NCCC[C@@H]1NC(=O)[C@H](CCCCNC(=O)CC[C@H](NC(=O)CCOCCOCCOCCOCCNC(=O)CN2CCN(CC(=O)O)CCN(CC(=O)O)CCN(CC(=O)O)CC2)C(=O)NCCCC[C@@H]2NC(=O)[C@@H](Cc3ccccc3)NC(=O)[C@H](CC(=O)O)NC(=O)CNC(=O)[C@H](CCCNC(=N)N)NC2=O)NC(=O)[C@@H](Cc2ccccc2)NC(=O)[C@H](CC(=O)O)NC(=O)CNC1=O [indium-111 labelled], “tumour to tissue ratio” read 1.92 ± 0.15 (athymic nude mice, female, U-87 MG glioma xenograft, tumour and liver; intravenous, 1 h; relative to: tumour over liver).
